Measurements of several laboratories.
Values joined by “and” are separate records of one study, mostly repeats; a detail may differ. ± marks the error that the study gave.

Cc1noc(C)c1-c1cc(C(O)(c2ccccn2)c2ccccn2)c2nc(C3CC3)[nH]c2c1 — maximum induction (refers to: HEXIM1 expression; human, peripheral blood; 0.6 mg, day 8, 1599 study): 26.3%
CC(C)[C@H](C(=O)Nc1ccc(C(=O)NO)cc1)c1ccccc1 — tumour volume change (volumetric MRI; human; dose not given, 995 days): 5.38%
COc1ccc(-c2nnc(S)[nH]2)cc1 — IC50 (CoA-CPM signal reduction, CPM fluorescence thiol; cell-free biochemical; assay interference counter-screen, with: CoA replacing acetyl-CoA): 84 ± 5 µM
CO[C@H]1CC[C@H](N2C(=O)CNc3ncc(-c4ccc(C(C)(C)O)nc4)nc32)CC1 — p4EBP1 change from baseline (flow cytometry; stimulated T cells, human, blood; 30 mg single dose, 5 h, median; relative to: baseline): -35.9%
C[C@H](Oc1ccc(Br)cc1-c1ccon1)C(=O)O — maximum voluntary grip contraction (handgrip dynamometry; healthy human males; 200 mg once daily, multiple doses; relative to: placebo): 4.13 kg
CO[C@@H]1[C@@H](OC(N)=O)[C@@H](O)[C@H](Oc2ccc3c(O)c(NC(=O)c4ccc(O)c(CC=C(C)C)c4)c(=O)oc3c2C)OC1(C)C — colony survival (Brca1 cc/cc MEFs, mouse; 50 µM): 88.5% and 84.8% and 80.7% and 91.3% and 75.3%
O=C(O)CCC(=O)O.[2H]C([2H])([2H])Oc1cc(C)c2[nH]ccc2c1CN1CC[C@@H](C2CC2)C[C@H]1c1ccc(C(=O)O)cc1 — maximum inhibition (EIA, refers to: complement fragment Bb; human, plasma; 100 mg twice daily, multiple ascending dose): 51.6%
C[C@@H](NC(=O)N1C(=O)[C@H](Cc2ccnc(N)c2)[C@H]1C(=O)O)C1CCCCC1 — time to ACT Emax (human; iv infusion, 2.25 mg/kg/h, 24 h): 24 h
CN(C)C(=O)c1cc2cnc(Nc3ccc(N4CCNCC4)cn3)nc2n1C1CCCC1 — enrichment score (RNA-seq GSEA, refers to: HALLMARK_IL2_STAT5_SIGNALING gene set; MB002 tumour; concentration not given; relative to: vehicle, direction not given): 0.29
CC[C@H](C)/C=C/C(=O)N1C[C@@H](C)C[C@H]1C(=O)N[C@@H](CCC1CCCCC1)C(=O)N[C@@H](CC(C)C)C(=O)NC(C)(C)C(=O)N[C@@H](CC(C)C)C(=O)N[C@@H](CC(C)C)C(=O)NC(C)(C)C(=O)NC(C)(C)C(=O)NCCC(=O)N[C@@H](C)CN(C)C — calcein leakage (small unilamellar vesicles; concentration not given): 31.2%
Fc1cccc(Nc2nc(-c3ccccc3)no2)c1 — IC50 (CoA-CPM signal reduction, CPM fluorescence thiol; cell-free biochemical; assay interference counter-screen, with: CoA replacing acetyl-CoA): > 125 µM
COc1ccc(-c2cncc(N[C@@H](C)c3cccc(NC(=O)c4cncc(C)c4)c3)n2)cc1OC — delta delta Ct (refers to: rno-miR-151-3p; rat SU5416/hypoxia model, lung; dose not given, unit not given; relative to: SU5416/hypoxia vehicle): 0.00233
CC(C)NCC(O)c1ccc(O)c(O)c1 (stereo not shown) — sarcomere length (ventricular cardiomyocytes, C57BL/6 mouse; dose not given, 0.748 s): 1.72 µm
O=C(NC1CS(=O)(=O)c2ccccc21)c1cc2ccccc2s1 (stereo not shown) — IC50 (CoA-CPM signal reduction, CPM fluorescence thiol; cell-free biochemical; assay interference counter-screen, with: CoA replacing acetyl-CoA): > 125 µM
c1ccc(-c2n[nH]cc2-c2ccnc3ccccc23)nc1 — log2 fold change (kinase binding, competitor, MIB/MS competition, refers to: SSK2; Candida albicans cell lysate; 1 µM; relative to: DMSO): 0.881
COc1cc(Nc2ncc3c(n2)-c2ccc(Cl)cc2C(c2c(F)cccc2OC)=NC3)ccc1C(=O)O — median response score (female NOD/scid mice, ALL-2 B-precursor ALL xenograft; 5.2 mg/kg, 5 days weekly, score scale 0 to 10; direction not given): 8
O=S(=O)(NCc1ccccc1)c1ccc(Br)c2nsnc12 — IC50 (CoA-CPM signal reduction, CPM fluorescence thiol; cell-free biochemical; assay interference counter-screen, with: CoA replacing acetyl-CoA): > 125 µM
Cc1oncc1C(=O)Nc1ccc(C(F)(F)F)cc1 — DHO concentration (refers to: dihydroorotate; female CD-1 mice, pooled urine; oral, 10 mg/kg daily, 0-8 h after dose 3, 10-day dosing): 90.4 ± 4.33 µM
COc1ccccc1[C@H](Cn1c(=O)n(C(C)(C)C(=O)O)c(=O)c2c(C)c(-c3ncco3)sc21)OC1CCOCC1 — fractional hepatic DNL ([1-13C]acetate infusion, isotopomer analysis; overweight or obese healthy men, plasma VLDL-TG palmitate; oral, 200 mg single dose, 3 h post-dose, with: oral fructose): 5.74 % new palmitate
O=C(O)CNC(=O)Cc1ccccc1 — sarcomere length (ventricular cardiomyocytes, C57BL/6 mouse; dose not given, 0.428 s): 1.72 µm
N#Cc1ccn2c(-c3ccncc3)c(-c3ccc(F)cc3)nc2c1 — log2 fold change (kinase binding, competitor, MIB/MS competition, refers to: CMK2; Candida albicans cell lysate; 1 µM; relative to: DMSO): 0.0166
C[C@H]1O[C@@H](O[C@H]2CC[C@@]3(C)[C@@H](CC[C@]4(C)[C@@H]3C=C[C@]35OC[C@@]6(CCC(C)(C)C[C@H]63)[C@@H](O)C[C@]54C)[C@]2(C)CO)[C@H](O)[C@@H](O[C@@H]2O[C@H](CO)[C@@H](O)[C@H](O)[C@H]2O)[C@H]1O — AST activity (chronic-plus-binge ethanol mice, plasma; oral, 15 mg/kg/day for 7 d, 168 h): 41.4 U/L and 34.5 U/L and 43.3 U/L and 43.7 U/L and 44 U/L
CSCCNc1nc(SCCC(F)(F)F)nc2c1ncn2[C@@H]1O[C@H](COP(=O)(O)OP(=O)(O)C(Cl)(Cl)P(=O)(O)O)[C@@H](O)[C@H]1O — patients with high reactivity (ADP-induced platelet aggregation, Multiplate, AUC >46 U; human patients, whole blood; dose not given, 4 to 6 h): 48.5%
N#CCC1CCN(c2nc(Nc3ccc(N4CCC(O)CC4)cc3)c3c(=O)[nH]ncc3n2)CC1 — IL-18 level change (Olink multiplex; human, serum; 80 mg, day 29, unit not given; relative to: baseline): -1.59
c1ccc(CNc2nc(-c3ccccc3)no2)cc1 — IC50 (CoA-CPM signal reduction, CPM fluorescence thiol; cell-free biochemical; assay interference counter-screen, with: CoA replacing acetyl-CoA): > 125 µM
C[C@H]1C[C@H]2CSC(N)=N[C@@]2(c2nc(NC(=O)c3ccc(OC(F)F)cn3)cs2)CO1 — percent change from baseline (refers to: total Aβ; healthy adults, plasma; 40 mg single dose, 48 h post-dose; relative to: placebo): -33%
C=CC(=O)N1CCC(c2ccc(C(N)=O)c(-c3ccc(Oc4ccccc4)cc3)n2)CC1 — PR (tumour response, Lugano classification; patients with relapsed/refractory MCL; independent review, 10.5 months follow-up): 54.7%
O=S1(=O)C=C(Sc2ccc(Cl)cc2)c2ccccc21 — IC50 (CoA-CPM signal reduction, CPM fluorescence thiol; cell-free biochemical; assay interference counter-screen, with: CoA replacing acetyl-CoA): > 125 µM
Cc1nc(C(=O)N2CCC[C@H]2C(=O)N[C@@H](CCC2CCCCC2)C(=O)N[C@@H](CC(C)C)C(=O)NC(C)(C)C(=O)N[C@@H](CC(C)C)C(=O)N[C@@H](CC(C)C)C(=O)NC(C)(C)C(=O)NC(C)(C)C(=O)NCCC(=O)NC2(CN(C)C)CCC2)co1 — calcein leakage (small unilamellar vesicles; concentration not given): 10.3%
C=CCn1c(=O)c2cnc(Nc3ccc(N4CCN(C)CC4)cc3)nc2n1-c1ccc2c(n1)[C@@](O)(CC)CC2 — tumour volume difference (NCI-H1299 xenograft, BALB/c nude mice; oral, 80 mg/kg once daily x 28, day 23): 1260 ± 50.7 mm3
N#Cc1ccc2c(c1)[C@H]1CCCN(C(=O)c3ccc4[nH]cnc4c3)[C@H]1C2 — change from baseline (refers to: diastolic blood pressure; human; 20 mg once daily, day 28, adjusted mean; relative to: placebo): 2.2 mmHg
Cc1cc(/C=C2\Oc3cc(OCC4CC4)ccc3C2=O)cc(C)c1OC(C)(C)C(=O)O — NAFLD activity score (db/db mice on MCD diet; oral, 30 mg/kg daily, 45 days; relative to: untreated model): decreased
CCOCc1nc2c(N)nc3ccccc3c2n1CC(C)(C)O — CD86 induction (CD86 expression, flow cytometry; CD14+ myeloid cells in PBMC, human; 100 or 1000 nM): increased
C=CC(=O)Nc1cc(Nc2nccc(Nc3cc(Cl)c(F)cc3C(C)(C)O)n2)c(OC)cc1N1CC[C@@H](N(C)C)C1 — confirmed objective response rate (human, EGFR exon20ins NSCLC; dose not given, other subtypes): 38.9%
Cc1c(C)c2c(c(C)c1O)CCC(C)(C(=O)O)O2 (stereo not shown) — ABTS radical cation scavenging (ABTS; DMSO; concentration not given): 98.1 ± 0.48%
O=C(Oc1ccc(NS(=O)(=O)c2ccccc2)cc1Br)c1ccccc1 — IC50 (CoA-CPM signal reduction, CPM fluorescence thiol; cell-free biochemical; assay interference counter-screen, with: CoA replacing acetyl-CoA): > 125 µM
O=Cc1c(O)cc(C(F)(F)F)cc1C(F)(F)F — pseudo-first-order rate constant (HPLC-MS; pH 10.2, with: 50 mM N-α-acetyl-lysine): 0 h⁻¹
N#Cc1ccc2c(c1)[C@H]1CCCN(C(=O)c3ccc4[nH]cnc4c3)[C@H]1C2 — change in fasting insulin (human, plasma; 80 mg, day 15, 360 h; relative to: placebo and baseline): -28.4%
CC(c1cc2ccccc2s1)N(O)C(N)=O (stereo not shown) — PGD2 level (human blood; 3 µM, with: A23187): 7 ± 7 pg/mL
Cc1n[nH]c2ccc(-c3cc(OC[C@@H](N)Cc4ccccc4)cnc3-c3ccoc3)cc12 — log2 fold change (kinase binding, competitor, MIB/MS competition, refers to: ENV7; Candida albicans cell lysate; 100 nM; relative to: DMSO): -0.351
Cc1cn(-c2ccc3n(c2=O)CCN([C@@H](C)[C@@H]2CC[C@H](c4cc(F)c(Cl)cc4C(F)(F)F)O2)C3=O)cn1 — maximum CSF Aβ37 increase (human, CSF; 300 mg single dose, serial CSF sampling; relative to: placebo and baseline): 294%
Cn1cc(Nc2nccc(-c3ccc4c(c3)CN(C3COC3)CC[C@H]4NC(=O)c3cn(C(C)(C)C)nn3)n2)cn1 — pathway activation z-score (refers to: Myc Mediated Apoptosis Signaling; splenic B cells, mouse; in vivo, 30 mg/kg, IgD-activated B cells; relative to: vehicle, positive = activation): 0.302
OC(CCN1CCCCC1)(c1ccccc1)C1CC2C=CC1C2 (stereo not shown) — change in EEG Beta2-power Fz-Cz (resting-state EEG; healthy elderly humans; oral, 2 mg, eyes open, LS mean; relative to: baseline): 4.7%
NC(=O)c1cnc2[nH]ccc2c1N[C@@H]1[C@@H]2CC3C[C@H]1C[C@@](O)(C3)C2 — change from baseline (flow cytometry, refers to: CD8+ effector T cells; Japanese healthy subjects, peripheral blood; oral, 100 mg twice daily, day 7): 0.05%
[Cl-].[Cl-].[Ru+2].c1cnc2c(c1)c1nc[nH]c1c1cccnc12.c1cnc2c(c1)ccc1cccnc12.c1cnc2c(c1)ccc1cccnc12 — singlet oxygen quantum yield (air-saturated acetonitrile): 56%
CC1(C)CCC(CN2CCN(c3ccc(C(=O)NS(=O)(=O)c4ccc(NCC5CCOCC5)c([N+](=O)[O-])c4)c(Oc4cnc5[nH]ccc5c4)c3)CC2)=C(c2ccc(Cl)cc2)C1 — EC50 (cell kill, PI exclusion flow cytometry; neoplastic B cells, human, thawed lymph node; 24 h): 1.24 µM
CN[C@@H]1COc2c(S(=O)(=O)NC(=O)Nc3c4c(cc5c3CCC5)CCC4)cnn2C1 — inhibition (refers to: IL-1β; human participants, whole blood ex vivo; 150 mg single dose, 48 h, with: LPS/ATP; relative to: baseline): 52.3%
Cc1cc(Nc2cc3ncccc3c(N[C@@H]3C[C@H]4CC[C@@H](C3)N4CCC#N)n2)n[nH]1 — change in endoscopic subscore (moderate-severe ulcerative colitis patients; 80 mg, day 28, Modified Mayo; relative to: baseline, direction not given): -0.3
Cl.N[C@@H](Cc1ccc(Oc2nnc(-c3ccccc3)nn2)cc1)C(=O)O — kobs (iEDDA cycloaddition; aqueous DMSO 25 %; 37 °C, with: TCO-OH 22 mM): 1.7 s⁻¹

For quick reference, copied from above:
COc1ccc(-c2nnc(S)[nH]2)cc1 — IC50 (CoA-CPM signal reduction, CPM fluorescence thiol; cell-free biochemical; assay interference counter-screen, with: CoA replacing acetyl-CoA): 84 ± 5 µM
CN[C@@H]1COc2c(S(=O)(=O)NC(=O)Nc3c4c(cc5c3CCC5)CCC4)cnn2C1 — inhibition (refers to: IL-1β; human participants, whole blood ex vivo; 150 mg single dose, 48 h, with: LPS/ATP; relative to: baseline): 52.3%
CN(C)C(=O)c1cc2cnc(Nc3ccc(N4CCNCC4)cn3)nc2n1C1CCCC1 — enrichment score (RNA-seq GSEA, refers to: HALLMARK_IL2_STAT5_SIGNALING gene set; MB002 tumour; concentration not given; relative to: vehicle, direction not given): 0.29
N#Cc1ccc2c(c1)[C@H]1CCCN(C(=O)c3ccc4[nH]cnc4c3)[C@H]1C2 — change in fasting insulin (human, plasma; 80 mg, day 15, 360 h; relative to: placebo and baseline): -28.4%
CC1(C)CCC(CN2CCN(c3ccc(C(=O)NS(=O)(=O)c4ccc(NCC5CCOCC5)c([N+](=O)[O-])c4)c(Oc4cnc5[nH]ccc5c4)c3)CC2)=C(c2ccc(Cl)cc2)C1 — EC50 (cell kill, PI exclusion flow cytometry; neoplastic B cells, human, thawed lymph node; 24 h): 1.24 µM
CO[C@@H]1[C@@H](OC(N)=O)[C@@H](O)[C@H](Oc2ccc3c(O)c(NC(=O)c4ccc(O)c(CC=C(C)C)c4)c(=O)oc3c2C)OC1(C)C — colony survival (Brca1 cc/cc MEFs, mouse; 50 µM): 88.5% and 84.8% and 80.7% and 91.3% and 75.3%
